# Assay results collected from several papers.
# Lines come from different studies, so protocols differ. ± marks the error that the study gave.
Compound,assay,test system,conditions,quantity,value
CC(C)=CCC/C(C)=C/CCn1cc(CC(C)(P(=O)(O)O)P(=O)(O)O)nn1,,"CD-1 mice, pooled bile","intravenous, 0.3 mg/kg, 24 h",bile concentration,394 ng/mL
CC[C@H](C)[C@H](NC(=O)[C@H](CCCCN)NC(=O)CNC(=O)[C@H](CC(C)C)NC(=O)[C@H](Cc1ccccc1)NC(=O)[C@H](CCCCN)NC(=O)[C@H](CO)NC(=O)[C@H](Cc1ccccc1)NC(=O)[C@H](Cc1c[nH]c2ccccc12)NC(=O)[C@H](CCC(N)=O)NC(=O)[C@@H](NC(=O)[C@H](Cc1ccccc1)NC(=O)CCCCCNC(=O)CN1CCN(CC(=O)O)CCN(CC(=O)O)CCN(CC(=O)O)CC1)C(C)C)C(=O)N[C@@H](CCC(=O)O)C(=O)N1CCC[C@H]1C(=O)N[C@@H](CC(=O)O)C(=O)N[C@H](C(=O)N[C@@H](CO)C(=O)N[C@@H](CCC(N)=O)C(=O)N[C@H](C(=O)N[C@@H](CCC(N)=O)C(=O)N[C@@H](CC(=O)O)C(=O)N1CCC[C@H]1C(=O)N[C@@H](CC(N)=O)C(=O)N[C@@H](CC(=O)O)C(=O)N[C@@H](CCC(N)=O)C(=O)N[C@@H](Cc1ccc(O)cc1)C(=O)N[C@@H](CCC(=O)O)C(=O)N1CCC[C@H]1C(=O)N[C@@H](Cc1ccccc1)C(=O)O)C(C)C)C(C)C [copper-64 labelled],dynamic PET,"mouse, CT26 tumour, checkpoint inhibitor-treated, tumour","intravenous, 100 µCi/mouse, 1380 s",SUVmean,3.89 SUV
COc1cnc2cccc(N3CCc4c(cc(Cn5ccnc5)cc4-c4cn(C)nc4C(F)(F)F)C3=O)c2c1,,CD-1 mice,"intraperitoneal, 100 mg/kg once daily, day 1",body weight,27.8 ± 0.5 g
CCCCCCCC(=O)N[C@@H](CCCNC(=N)N)C(=O)N[C@@H](Cc1c[nH]c2ccccc12)C(=O)N[C@@H](CCCCN)C(=O)N[C@H](C(=O)N[C@@H](Cc1ccccc1)C(=O)N[C@@H](CCCCN)C(=O)N[C@@H](CCCCN)C(=O)N[C@H](C(=O)N[C@@H](CCC(=O)O)C(=O)N[C@@H](CCCCN)C(=O)N[C@H](C(=O)NCC(=O)N[C@@H](CCC(N)=O)C(=O)N[C@@H](CC(N)=O)C(=O)N[C@H](C(=O)N[C@@H](CCCNC(=N)N)C(=O)N[C@@H](CC(=O)O)C(=O)NCC(=O)N[C@H](C(=O)N[C@H](C(=O)N[C@@H](CCCCN)C(=O)N[C@@H](C)C(=O)NCC(=O)N1CCC[C@H]1C(=O)N[C@@H](C)C(=O)N[C@H](C(=O)N[C@@H](C)C(=O)N[C@H](C(=O)N[C@H](C(=O)NCC(=O)N[C@@H](CCC(N)=O)C(=O)N[C@@H](C)C(=O)N[C@@H](C)C(=O)N[C@H](C(=O)N[C@H](C(N)=O)[C@@H](C)CC)[C@@H](C)O)C(C)C)C(C)C)C(C)C)C(C)C)[C@@H](C)CC)[C@@H](C)CC)C(C)C)[C@@H](C)CC)[C@@H](C)CC,CD spectroscopy,50% TFE in water,room temperature,helical content,38.6%
CCCCCCCCCCCCCCCC(=O)N[C@@H](CCC(=O)NCCOCCOCCC(=O)NCCOCCOCCC(=O)NCCCC[C@H](NC(=O)[C@H](CC(=O)O)NC(=O)[C@H](CC(C)C)NC(=O)[C@H](Cc1ccc(O)cc1)NC(=O)[C@H](CCCCN)NC(=O)[C@H](CO)NC(=O)[C@H](Cc1ccc(O)cc1)NC(=O)[C@H](CC(=O)O)NC(=O)[C@H](CO)NC(=O)[C@@H](NC(=O)[C@H](Cc1ccccc1)NC(=O)[C@@H](NC(=O)CNC(=O)[C@H](CCC(N)=O)NC(=O)[C@@H](CO)NC(=O)[C@@H](N)Cc1c[nH]cn1)[C@@H](C)O)[C@@H](C)O)C(=O)N[C@@H](CCCNC(=N)N)C(=O)N[C@@H](CCCNC(=N)N)C(=O)N[C@@H](C)C(=O)N[C@@H](CCC(N)=O)C(=O)N[C@@H](CC(=O)O)C(=O)N[C@@H](Cc1ccccc1)C(=O)N[C@H](C(=O)N[C@@H](CCC(N)=O)C(=O)N[C@@H](Cc1c[nH]c2ccccc12)C(=O)N[C@@H](CC(C)C)C(=O)N[C@@H](CC(C)C)C(=O)N[C@@H](CC(N)=O)C(=O)N[C@H](C(=O)NCC(=O)NCC(=O)N1CCC[C@H]1C(=O)N[C@@H](CO)C(=O)N[C@@H](CO)C(=O)NCC(=O)N[C@@H](C)C(=O)N1CCC[C@H]1C(=O)N1CCC[C@H]1C(=O)N1CCC[C@H]1C(=O)N[C@@H](CO)C(N)=O)[C@@H](C)O)C(C)C)C(=O)O,refers to: ALP,"rhesus monkey, male","subcutaneous, 60 µg/kg once daily, 28 days",serum enzyme activity,300 ± 107 U/L
Cc1ccccc1-c1ccc(-c2nc(-c3ccc(CN(C)CCCC(=O)O)c([18F])c3)no2)cc1C(F)(F)F,,"rat, lung",2 h,tracer uptake,0.44 %ID/g
CC(C)Oc1c(NC(=O)c2ccc(NC(=O)[C@H](CC(N)=O)NC(=O)c3ccc(/N=N/c4ccccc4)cc3)cc2)ccc(C(=O)Nc2ccc(C(=O)O)cc2)c1O,absorbance kinetics,,"45 °C, photostationary to ground state",thermal relaxation half-life,4 h
CC(CCC(=O)NCC(=O)O)C1CCC2C3C(O)CC4CC(OC5OC(C(=O)O)C(O)C(O)C5O)CCC4(C)C3CCC12C (centres unmarked),,human women,"dose not given, SLCO1B1 *5/*14",plasma concentration,19.5 ng/mL
CN[C@H](CC(C)C)C(=O)N[C@H]1C(=O)N[C@@H](CC(N)=O)C(=O)N[C@H]2C(=O)N[C@H]3C(=O)N[C@H](C(=O)N[C@H](C(=O)O)c4cc(O)cc(O)c4-c4cc3ccc4O)[C@H](O)c3ccc(c(Cl)c3)Oc3cc2cc(c3O[C@@H]2O[C@H](CO)[C@@H](O)[C@H](O)[C@H]2O[C@H]2C[C@](C)(NCc3ccc(-c4ccc(Cl)cc4)cc3)[C@H](O)[C@H](C)O2)Oc2ccc(cc2Cl)[C@H]1O,,mouse,intravenous,MTD,75 mg/kg
CC(C)C[C@H](NC(=O)[C@H](Cc1ccc(O)cc1)NC(=O)[C@H](Cc1c[nH]cn1)NC(=O)[C@@H](NC(=O)[C@H](CC(C)C)NC(=O)[C@H](C)NC(=O)[C@H](C)NC(=O)[C@H](CCCCN)NC(=O)CNC(=O)[C@@H](NC(=O)[C@H](Cc1c[nH]cn1)NC(=O)[C@H](CCCCN)NC(=O)CNC(=O)[C@@H](NC(=O)[C@H](Cc1c[nH]cn1)NC(=O)[C@H](C)NC(=O)[C@H](C)NC(=O)[C@H](CCCCN)NC(=O)[C@H](CCCCN)NC(=O)[C@H](Cc1ccccc1)NC(=O)[C@H](Cc1ccccc1)NC(=O)[C@H](CO)NC(=O)CNC(=O)[C@H](Cc1c[nH]c2ccccc12)NC(=O)CN)C(C)C)C(C)C)[C@@H](C)O)C(N)=O,,"zebrafish embryos 4 hpf, E3 medium",24 h,chronic toxic concentration,1 µM
O=C1NC2(CC2)COc2ncc(F)cc2[C@H]2COCCN2c2ccn3ncc1c3n2,,"Sprague-Dawley rat, male, testes","oral, 2.5 mg/kg/day, 4 weeks, end of treatment",organ-to-brain weight ratio,152 ± 15.6%
O=C(O)c1ccccc1/C=N/Nc1nc(-c2ccccc2Cl)cs1,,"ICR mouse, male","oral, 15 (unit not given), single dose",maximum tolerated dose,1000 mg/kg
CC(C)[C@@H]1NC(=O)CNC(=O)[C@H](CC(N)=O)NC(=O)[C@H](CCCNC(=N)N)NC(=O)[C@H](Cc2ccc(O)cc2)NC(=O)[C@H](C(C)C)NC(=O)[C@@H](NC(=O)[C@@H](NC(=O)[C@H](CC(N)=O)NC(=O)[C@H](Cc2c[nH]c3ccccc23)NC(=O)[C@H](C)NC(=O)[C@H](Cc2ccccc2)NC(=O)CNC(=O)[C@H](CCCCN)NC(=O)[C@H](Cc2ccccc2)NC(=O)[C@H](Cc2ccccc2)NC(=O)[C@H](CCCCN)NC(=O)OCC2c3ccccc3-c3ccccc32)C(C)C)CSSC[C@@H](C(=O)N[C@@H](Cc2c[nH]cn2)C(=O)N[C@@H](CCCNC(=N)N)C(=O)N[C@@H](CCCNC(=N)N)C(=O)N[C@@H](C)C(=O)N[C@@H](CC(N)=O)C(N)=O)NC(=O)[C@H](C(C)C)NC(=O)[C@H](CCCNC(=N)N)NC1=O,,"ICR mice, blood","intraductal mammary, 10 mg/kg, day 5",neutrophils,19.7 ± 0.5%
N=C(N)NCCC[C@@H](NC(=O)[C@H](N)Cc1c[nH]c2ccccc12)C(=O)N[C@H](CCCCN)C(=O)N[C@H](Cc1c[nH]c2ccccc12)C(=O)N[C@H](CCCNC(=N)N)C(=O)N[C@H](CCCCN)C(=O)N[C@H](Cc1c[nH]c2ccccc12)C(=O)N[C@H](CCCNC(=N)N)C(=O)N[C@H](CCCCN)C(=O)N[C@H](Cc1c[nH]c2ccccc12)C(=O)N[C@H](CCCNC(=N)N)C(=O)N[C@H](CCCCN)C(N)=O,,mouse,"intraperitoneal, 20 mg/kg single dose, day 7",survival,100%
COC(=O)[C@H]1[C@@H](c2ccc(Cl)c(Cl)c2)C[C@@H]2CC[C@H]1N2Cc1c2ccccc2cc2ccccc12,fluorometric titration,,"1 µM, 10% DMSO",pKa,4.8
CN1CCCCC1C(=O)NC(Cc1ccc(-c2ccccc2)cc1)B(O)O (centres unmarked),,"male Sprague-Dawley rats, plasma","intravenous, 1 mg/kg, 24 h, citrate ester",AUC(0-t),1.44 µM·h
CC[C@H](C)[C@H](NC(=O)[C@H](Cc1ccc(O)cc1)NC(=O)[C@@H](NC(=O)[C@H](CCCNC(=N)N)NC(=O)[C@@H](N)CC(=O)O)C(C)C)C(=O)N[C@@H](Cc1c[nH]cn1)C(=O)N1CCC[C@H]1C(=O)O,,"Beagle dogs, both sexes, plasma","subcutaneous, 10 mg/kg/day, day 0, median",half-life,0.475 h

# A few entries again:
Compound,assay,test system,conditions,quantity,value
CN[C@H](CC(C)C)C(=O)N[C@H]1C(=O)N[C@@H](CC(N)=O)C(=O)N[C@H]2C(=O)N[C@H]3C(=O)N[C@H](C(=O)N[C@H](C(=O)O)c4cc(O)cc(O)c4-c4cc3ccc4O)[C@H](O)c3ccc(c(Cl)c3)Oc3cc2cc(c3O[C@@H]2O[C@H](CO)[C@@H](O)[C@H](O)[C@H]2O[C@H]2C[C@](C)(NCc3ccc(-c4ccc(Cl)cc4)cc3)[C@H](O)[C@H](C)O2)Oc2ccc(cc2Cl)[C@H]1O,,mouse,intravenous,MTD,75 mg/kg
